# Measured values collected from several papers.
# Every numbered part comes from another study and shows a few of its results, in no order. Substitutions count along the parent as printed.

# Block 1 — method: RNA Bind-n-Seq; form: RNA; sample: in vitro; tested at: 365 nM; reference: no-protein control; reading: higher = stronger binding
# Target: RNA binding protein fox-1 homolog 2, RRM domain, GST-SBP tag (RBFOX2, Homo sapiens, UniProt O43251-10, residues 100-194)
# Notes: natural RNA segment, single round, ends assumed
# Shared flanks, not repeated: GGGAGUUCUACAGUCCGACGAUC … UGGAAUUCUCGGGUGCCAA
# Residues (chain): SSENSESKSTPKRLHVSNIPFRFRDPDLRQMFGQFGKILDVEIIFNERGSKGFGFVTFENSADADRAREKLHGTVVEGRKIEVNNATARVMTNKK
Sequence,RBNS enrichment (R)
CUGCCUGGGAUGUUUUCGGGAACAAGAAUGUAUAUUUGCCUUAUCCCUGAACUUGGUUUAAUCAAAUCAAUGUGUGUAUUAGAAUAAAAGUCACAGCAUCAAAAAGCCAA,1.02
UGUGACUCAGUUCUUUCCAUCUGUUUGUCCCGCUGCAAGCCUCUUUCUGCGCUGACUGUGACAUUGGAACGUGGCCUUCCUGUCACCCCCUCCGUGCCACGCACUGAAGG,0.314
GCUGAGAAUCAUGAAAGACAGAUCCUCCGCUAGCCUCUGUGGGUCAAGUUUCUGGACACCAAGUCUCUGGGAACUAGUGUUUGAUUUUAAAUGGCAUGUGGCCCUUCCUU,0.71
AGGGACUGUGGCCCUGGAUUGCCCUCACUUGGGCCUCUGUCACACCGGGUUCCCCUCUGGAGCCACGGGGAACAGGGUAGGAAAAGGAGAAGAAGCACCGUGCGCAUACA,0.808
CACCACUCCCAGGCCUCUGACAUGAGGGACAUGUGACAGUGUCAUUCAGUAUUAUGUUCAAAAGACAUUUUUAUCCUGAUCAUAAUUAAUUUGAAAACUCUUUAAGUUCA,0.287
AAGGGAGAUUUCAAGCCACCUGACUUCUUCAGUUUAGUCUUCACCCAGGGUCAGAGCGCACAGCUUCAGGCAUCUCUGUCCACCAGCUAGCAGUGGAGAUGAAAUCAAGA,1.43
UGUGGUGGGCAGGCGCACUUUAGCCUAAGUUGGGUGCCCCAGGGCACCCCCUCCUCUCUGCUCCUUGCCAGCUUCAUUCACUCCCAGCCUCUCGCUGUCCUCACUUUGCA,2.79
UGACCUCAUCUUCCUUCUGGGUUUUGAGAACAGUGGGUGUGAAUCAGUGCUUGGCAAUCGUCCUUCUUACAGCAGUAAGCAAAAAUUAGCAAGGAACGUGUCCGCAUGGC,1
UGUGAUAUUAUAAAGGCAACACUUGUGACACUUCCACUAGCUAGGUGUGUAACCCUGGGUAGGCCACUCCAUCUCCUAGGUGUGUAACCCUGGACAGGACAUUUCACCUG,0.421
ACCCAGCCUGGGCCUGGAUGCUCUGUGAAUACAUUAUCUUGCGAUGUUGGGUUAUUCCAGCCAAAGACAUUUCAAGUGCCUGUAACUGAUUUGUACAUAUUUAUAAAAAU,0.493
AUGGUACCCAAGUUCACAUUUUAUUUUUAUUUUUUAUCAAAUUCUUAGAAAGAGUCAUAAGAAAAAAAAAAAGACAUUUUAUUGUAAAUAACUUACAAGUGAAAUUAAGA,0.508
GAUUCCGAUCGACUGCCAAGCAGCAGCCGCUGCCAGGGGCUGCGUCUGACAUCCUGACCUCCUGGACUGUAGGACUAUAUAAAGUACUACUGUAGAACUGCAAUUUCCAU,0.379

# Block 2 — method: protein-binding microarray; form: double-stranded DNA, one strand shown; sample: in vitro; tested at: not given; reading: higher = stronger binding
# Target: Cyclic AMP-dependent transcription factor ATF-1 (ATF1, Homo sapiens, UniProt P18846, residues 1-271, full length assumed)
# Notes: k-mer, scored over probes, only values ≥0.25
# Target sequence (chain): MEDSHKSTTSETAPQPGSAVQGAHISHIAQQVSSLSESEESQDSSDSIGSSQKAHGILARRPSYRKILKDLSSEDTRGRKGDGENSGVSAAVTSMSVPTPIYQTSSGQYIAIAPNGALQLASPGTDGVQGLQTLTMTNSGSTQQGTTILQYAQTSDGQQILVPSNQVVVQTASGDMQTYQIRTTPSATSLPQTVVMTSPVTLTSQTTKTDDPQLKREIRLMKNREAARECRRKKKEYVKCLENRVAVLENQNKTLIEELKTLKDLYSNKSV
Sequence,E-score
CTCGTCA,0.4
CGTAACA,0.344
ATGATGC,0.252
ACGTAGT,0.398
ACGTGAG,0.267
ACGACGC,0.261
CGATGAC,0.41
CGTGTAA,0.26
ACACGTG,0.316
ATATACG,0.261
ACGTTTC,0.27
ACGTTTG,0.283
ATACGTG,0.372
CGTAATC,0.396
ATGACGA,0.463
GTCACTA,0.343
CACATCA,0.258

# Block 3 — method: EMSA with sequencing; form: double-stranded DNA, one strand shown; sample: in vitro; tested at: 10 and 20 nM; reference: negative control set to 0; reading: higher = stronger binding
# Target: Hepatocyte nuclear factor 3-alpha (Foxa1, Mus musculus, UniProt P35582, residues 1-468, full length assumed)
# Sequence of UniProt P35582 (whole entry, looked up): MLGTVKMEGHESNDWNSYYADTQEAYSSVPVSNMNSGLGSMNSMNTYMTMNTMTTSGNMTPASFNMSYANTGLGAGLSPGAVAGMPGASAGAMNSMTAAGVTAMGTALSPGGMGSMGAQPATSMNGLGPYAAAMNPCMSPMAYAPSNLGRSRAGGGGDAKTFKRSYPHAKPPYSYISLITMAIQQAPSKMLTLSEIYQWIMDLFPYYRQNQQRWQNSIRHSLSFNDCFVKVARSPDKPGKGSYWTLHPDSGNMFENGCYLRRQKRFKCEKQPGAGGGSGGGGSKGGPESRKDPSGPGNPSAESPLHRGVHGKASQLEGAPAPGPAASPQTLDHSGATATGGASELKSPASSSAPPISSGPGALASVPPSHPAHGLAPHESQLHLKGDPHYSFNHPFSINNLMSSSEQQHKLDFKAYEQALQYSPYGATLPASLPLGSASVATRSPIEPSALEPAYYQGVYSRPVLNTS
# Notes: whole designed probe, mean of two concentrations, ends assumed
# Shared flanks, not repeated: GTGAGCGGTGCCCATTGATGGGGAAC … TTTCACTGGGATCGTGGGGAC
Sequence,normalised bound fraction
ACTGGGATGAGAGGCCAGGTAGAAACTTCAGGAGCATTCCACTTTGAAGTGTGAGGCTCTACCAGACACAAAATAAATATAACTGGGGGCCAGAATAATCTTCCAGGGCCAGCAAGTGAACCTGGCTTACGTGGCATGCATTAATATTTGGAGAAATTTCCCCAGCGAGGTTGCAGGAAGCTGAGTCACCTAC,0.234 ratio
ATCTTCCCCCTCTTCCTTGCCCCACCAGCTCACCTTCCCGGGTTATTTGCACAAAGGAAAATAAATAAAGCCGGCATTCGTTAACGCAGTTCTGGCGCAAACTGCTGTTTGCTCTGGATGAATCATGGTCCTTTGGCGAGGCGTGGCTCCGGGAGAGCAAAGCACCGTGTCAGGGCCATGATCCGGGGTGGCC,0.371 ratio
AAAACAAACAAATAAAACAACTAGTATGGAAGCTAGAATAATGTGATGCACCATTACACCAAATATTCAGTCTTAACATGGTTTTTAATATTATGTAATCTTGGAAGGTATTGCCATTGTTCATATGATACAGAATCAATGGCACTCACAAGCATCTGAATATGTTGAAAAATGGCACCTTCAAATAAAAATT,0.404 ratio
TGTATCCATCTGGGCAGTATCTTCTCTGGGCCTGGCCTGTCATAGGTGCTTCAGGTTTCCCCATTTGAACCAGATACCAGTCGGGTTACCGGATGTTTGCTTAAAATGAGTCGGCTTCCTGCTATAATTCCTGTGCTGCTTCCAGCTAGGACTGATCGAATCAGTCTGGATTTTCCTTGGGGTGATCCGCAGG,0.13 ratio
TGCTGGACCCCGGGCATAGGGAGCCCTTGCTGCTTCTCCACCCACCAGTGCTGAGCTCCGGGGGTGTTTGCCTTGCAGGTCCAAGGTGAGAATGTAAACACTGCAATTCCTCTGAAAACTGGCTGGAACCTCCTCCAGGGAGGAAGGGTTGCTCATGGGCTGGCCAGGCTCCCAAACATCATACACAGCAACC,0.333 ratio
TTTGAAATAGTTCATAATTTTAAAAGCAGCAACACTAACATTGTTCAGATTATTATAAAAGCATATATAAAGTTAGAGGATAGATGTTATATGTAATCTTGAAGAAAGACTTAATATTAAATATCTCAGAGTATACACTTTATGAATAGAAATGGTGTATCCTTTTTTCCTAAGGAACGGAAGAAATTCACAT,-0.0131 ratio
GAGCTGCTTGCAATTGAGTTGTATGTATGCTTCCACTTAATACGTCCTGCCGAGCCTGTAAGCCACTTCCGGCCAACAGGAATCTGCCCTCTGTGTTTACCTACTCTCTTTTTATGTCTTATTCCCAGAATGACTGGGGACCAAAGGAATCCTTTGCAGGAGTTTTCTCCAGACAGACAGTTCCACATGCTAG,0.232 ratio
ACCCCTGAACTTAAATAAAAGTTAACAAACCCCACAAATCCCTACATGAAAAGACAGGGCTAATTAGCTAATTGGTAGTAATACTATTAGCAGTGTTTACTGAGTGCTTGTATCAGCCAGACACTGGTCTCAGAGCTTGAGATGCTTTAGCTCATTAAGTTAATTGGCCCATGAGTTGGGTACCATTACTGCC,0.216 ratio

# Block 4 — method: protein binding microarray; form: double-stranded DNA, one strand shown; sample: in vitro; tested at: not given; reference: not given; reading: higher = stronger binding
# Target: Histone acetyltransferase KAT6A, winged helix 1, GST fusion (KAT6A, Homo sapiens, UniProt Q92794, residues 1-85)
# Notes: 8-mer, flanks averaged, mean of 2 arrays, mostly near background
# Target sequence (chain): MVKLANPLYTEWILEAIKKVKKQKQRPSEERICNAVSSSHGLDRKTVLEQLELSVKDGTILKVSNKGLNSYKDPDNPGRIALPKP
Sequence,E-score
ATCCTGTG,-0.202
GCTTTAGA,-0.183
CGGTTTGA,0.0506
ATGACGGA,0.0105
AATGAGAT,-0.145
GCGAGGCA,0.0444
CTATGGCC,0.039
ACCGCATG,0.197
ATAGTGAT,-0.0444
ATAGAAGG,0.0469
TAAGGAAA,-0.233
CGTGAGGA,0.107
GAGATTAC,0.102
GGATTCAA,-0.186
AGAAGCAC,-0.189
ATTGACTG,-0.168
GTCCCAAA,-0.194
CGGTAAGC,0.265
ACCAGAAA,-0.272
ATGGGTAC,-0.143
AATGTACG,-0.0224
CTGTCGGA,-0.023
ACGCCCAA,-0.0729

# Block 5 — method: DHFR PCA, deep sequencing; sample: yeast; together with: (+)-ABA 0.032 µM; reference: wild-type fitted maximum; reading: higher = stronger binding
# Target: ABI1, truncated, D143A, DHFR fusion (Arabidopsis thaliana)
# Notes: methotrexate growth selection, single substitutions
# Starting sequence: PYL1, truncated, DHFR fusion (Arabidopsis thaliana); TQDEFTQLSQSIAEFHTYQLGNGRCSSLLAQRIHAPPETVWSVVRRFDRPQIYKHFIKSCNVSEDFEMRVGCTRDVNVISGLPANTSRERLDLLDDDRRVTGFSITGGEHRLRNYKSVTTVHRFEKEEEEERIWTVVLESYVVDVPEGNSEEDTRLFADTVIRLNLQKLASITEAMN
Variant,relative binding score [%]
W41M,-3.93
V62N,-9.32
S87V,59.2
K58F,-1.15
N22V,35.5
Q19S,24.9
N77T,64.7
S63L,2.55
D153E,16.5
V70A,6.95
S63Q,16
R74Q,-2.49
N85S,52.5
S140N,-4.02

# Block 6 — target: CCNF, cyclin fold, Cln2 fusion (human); method: yeast growth competition, sequencing; sample: yeast; notes: strong parent motif; reference: not given; reading: higher = stronger binding
# Starting sequence: CDKN1A docking peptide (human); SKACRRLFGPVDS
Variant,normalised enrichment score
SKACRRLFGPYDS [V11Y],7.78
SKKCRRLFGPVDS [A3K],2.06
SKACTRLFGPVDS [R5T],0.76
SKACRRLFGPVKS [D12K],7.08
SKYCRRLFGPVDS [A3Y],4.11
SKACRRLFMPVDS [G9M],8.05
SKWCRRLFGPVDS [A3W],3.01
SKRCRRLFGPVDS [A3R],1.91
SKACHRLFGPVDS [R5H],0.776
SKACRRLFGPSDS [V11S],7.52
SKACRRLFGPQDS [V11Q],7.78
SCACRRLFGPVDS [K2C],6.4
SKACRRYFGPVDS [L7Y],0.939
SKACRRLFGNVDS [P10N],7.08
SKACRRLRGPVDS [F8R],0.433
SKACRRLTGPVDS [F8T],-0.14
SKACRRLCGPVDS [F8C],0.67
SKACRYLFGPVDS [R6Y],2.86
SKACRRLFGFVDS [P10F],6.29
SKACRRLFGPVSS [D12S],7.08
SKACRRLWGPVDS [F8W],3.68
SKACRRLFGPVES [D12E],7.18
SKACRRLFGKVDS [P10K],6.5
SKACARAFGPVDS [R5A L7A],0.644
SKGCRRLFGPVDS [A3G],4.6

# Block 7 — method: universal PBM; form: double-stranded DNA, one strand shown; sample: in vitro; tested at: not given; reading: higher = stronger binding
# Target: Sal-like protein 4, full length isoform B (SALL4, Homo sapiens, UniProt Q9UJQ4-2, residues 1-616)
# Notes: 8-mer, flanks averaged, mean of replicates
Sequence,E-score
TAAGAATA,0.18
GCAGATTA,0.13
ACGTCCTG,-0.216
CCCTGGTA,-0.329
CGCGAATA,0.103
GCTTATGA,0.192
AACCCAAA,0.0374
CCCGCTGC,-0.0309
CAATTCGA,0.0398
GCGGGCTA,-0.212
AATCAGGT,0.178
CCCGAGGC,-0.344
GGATTGGA,-0.0435
ATTCTACG,0.0175
GAACATCC,0.0175
CGCTGGGC,-0.319
GTTCGAGA,-0.0946
TTCGCCAA,-0.012
GGTGTTAC,-0.0268
CCCCAGGA,-0.372
GTTGGATA,0.141
CCGGAACC,-0.433
ATAACACG,0.176
GTCAAGAA,0.0638

# A few entries again (block 7):
Sequence,E-score
AACCCAAA,0.0374
CCCGCTGC,-0.0309
CAATTCGA,0.0398
GCGGGCTA,-0.212
AATCAGGT,0.178
CCCGAGGC,-0.344
GGATTGGA,-0.0435
